Measured values from different studies.
Numbered parts are unrelated; each lists some results of a single study.
Chain of UniProt Q9HAZ1 (whole entry, looked up): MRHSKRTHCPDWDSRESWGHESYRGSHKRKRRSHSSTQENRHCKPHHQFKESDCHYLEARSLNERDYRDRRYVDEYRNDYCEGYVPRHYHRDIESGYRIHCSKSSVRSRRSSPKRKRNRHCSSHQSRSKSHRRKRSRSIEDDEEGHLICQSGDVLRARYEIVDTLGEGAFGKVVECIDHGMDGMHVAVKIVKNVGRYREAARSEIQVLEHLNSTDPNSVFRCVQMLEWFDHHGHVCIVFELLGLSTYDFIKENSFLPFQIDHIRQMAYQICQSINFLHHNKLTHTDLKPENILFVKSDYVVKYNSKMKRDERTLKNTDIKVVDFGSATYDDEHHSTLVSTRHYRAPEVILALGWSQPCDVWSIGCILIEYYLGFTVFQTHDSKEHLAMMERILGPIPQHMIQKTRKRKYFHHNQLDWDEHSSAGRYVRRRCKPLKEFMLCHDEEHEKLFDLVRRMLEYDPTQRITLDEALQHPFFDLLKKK
Chain of UniProt Q15746 (whole entry, looked up): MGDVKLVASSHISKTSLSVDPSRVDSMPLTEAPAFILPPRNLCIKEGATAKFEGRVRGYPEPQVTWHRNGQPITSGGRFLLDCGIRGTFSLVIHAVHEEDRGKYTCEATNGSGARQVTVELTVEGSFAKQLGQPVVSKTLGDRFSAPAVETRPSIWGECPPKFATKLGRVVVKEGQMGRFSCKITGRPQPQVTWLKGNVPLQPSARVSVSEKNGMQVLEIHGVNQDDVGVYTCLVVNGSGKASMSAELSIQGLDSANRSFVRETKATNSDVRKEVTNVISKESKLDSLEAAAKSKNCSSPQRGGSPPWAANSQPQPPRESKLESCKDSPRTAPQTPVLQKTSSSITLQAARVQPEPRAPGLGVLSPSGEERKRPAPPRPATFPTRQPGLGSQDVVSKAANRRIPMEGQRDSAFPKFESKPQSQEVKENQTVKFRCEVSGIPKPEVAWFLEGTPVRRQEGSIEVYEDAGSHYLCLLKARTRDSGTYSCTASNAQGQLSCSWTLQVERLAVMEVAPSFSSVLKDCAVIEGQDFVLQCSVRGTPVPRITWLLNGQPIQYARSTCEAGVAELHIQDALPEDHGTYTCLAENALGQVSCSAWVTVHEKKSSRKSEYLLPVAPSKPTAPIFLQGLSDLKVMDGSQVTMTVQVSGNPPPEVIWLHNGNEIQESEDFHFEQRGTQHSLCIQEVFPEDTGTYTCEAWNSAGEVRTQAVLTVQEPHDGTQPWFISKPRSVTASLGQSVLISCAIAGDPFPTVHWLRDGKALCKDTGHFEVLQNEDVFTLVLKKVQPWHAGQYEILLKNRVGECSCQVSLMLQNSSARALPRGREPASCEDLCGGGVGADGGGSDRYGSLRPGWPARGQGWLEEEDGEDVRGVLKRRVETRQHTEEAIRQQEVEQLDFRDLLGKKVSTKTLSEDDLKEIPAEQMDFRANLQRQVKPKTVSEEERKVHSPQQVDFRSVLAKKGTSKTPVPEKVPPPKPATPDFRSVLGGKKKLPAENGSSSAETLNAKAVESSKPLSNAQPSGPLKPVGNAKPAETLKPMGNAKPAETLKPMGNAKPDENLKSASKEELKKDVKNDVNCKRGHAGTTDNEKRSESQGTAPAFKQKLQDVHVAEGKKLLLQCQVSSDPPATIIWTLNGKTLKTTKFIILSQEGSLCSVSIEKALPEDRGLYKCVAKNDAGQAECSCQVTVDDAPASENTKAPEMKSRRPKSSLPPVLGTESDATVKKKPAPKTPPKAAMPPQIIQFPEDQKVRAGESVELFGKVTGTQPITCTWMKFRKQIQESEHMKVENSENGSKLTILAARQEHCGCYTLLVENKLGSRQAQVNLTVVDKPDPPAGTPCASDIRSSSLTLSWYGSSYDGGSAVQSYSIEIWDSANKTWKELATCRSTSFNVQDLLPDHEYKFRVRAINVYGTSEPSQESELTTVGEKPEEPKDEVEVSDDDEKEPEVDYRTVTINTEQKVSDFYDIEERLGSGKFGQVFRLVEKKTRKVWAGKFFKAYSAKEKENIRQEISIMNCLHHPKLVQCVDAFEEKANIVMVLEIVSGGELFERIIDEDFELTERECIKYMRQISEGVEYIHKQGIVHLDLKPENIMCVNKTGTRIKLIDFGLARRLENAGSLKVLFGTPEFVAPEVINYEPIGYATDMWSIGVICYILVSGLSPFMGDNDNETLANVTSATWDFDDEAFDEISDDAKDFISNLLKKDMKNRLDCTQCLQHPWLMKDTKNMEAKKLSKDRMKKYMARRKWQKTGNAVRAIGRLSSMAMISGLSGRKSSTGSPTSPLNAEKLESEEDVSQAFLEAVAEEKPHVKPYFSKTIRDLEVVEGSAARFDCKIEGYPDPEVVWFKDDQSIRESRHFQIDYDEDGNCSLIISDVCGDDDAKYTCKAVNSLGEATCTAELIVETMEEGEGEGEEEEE
Chain of UniProt Q86Z02 (whole entry, looked up): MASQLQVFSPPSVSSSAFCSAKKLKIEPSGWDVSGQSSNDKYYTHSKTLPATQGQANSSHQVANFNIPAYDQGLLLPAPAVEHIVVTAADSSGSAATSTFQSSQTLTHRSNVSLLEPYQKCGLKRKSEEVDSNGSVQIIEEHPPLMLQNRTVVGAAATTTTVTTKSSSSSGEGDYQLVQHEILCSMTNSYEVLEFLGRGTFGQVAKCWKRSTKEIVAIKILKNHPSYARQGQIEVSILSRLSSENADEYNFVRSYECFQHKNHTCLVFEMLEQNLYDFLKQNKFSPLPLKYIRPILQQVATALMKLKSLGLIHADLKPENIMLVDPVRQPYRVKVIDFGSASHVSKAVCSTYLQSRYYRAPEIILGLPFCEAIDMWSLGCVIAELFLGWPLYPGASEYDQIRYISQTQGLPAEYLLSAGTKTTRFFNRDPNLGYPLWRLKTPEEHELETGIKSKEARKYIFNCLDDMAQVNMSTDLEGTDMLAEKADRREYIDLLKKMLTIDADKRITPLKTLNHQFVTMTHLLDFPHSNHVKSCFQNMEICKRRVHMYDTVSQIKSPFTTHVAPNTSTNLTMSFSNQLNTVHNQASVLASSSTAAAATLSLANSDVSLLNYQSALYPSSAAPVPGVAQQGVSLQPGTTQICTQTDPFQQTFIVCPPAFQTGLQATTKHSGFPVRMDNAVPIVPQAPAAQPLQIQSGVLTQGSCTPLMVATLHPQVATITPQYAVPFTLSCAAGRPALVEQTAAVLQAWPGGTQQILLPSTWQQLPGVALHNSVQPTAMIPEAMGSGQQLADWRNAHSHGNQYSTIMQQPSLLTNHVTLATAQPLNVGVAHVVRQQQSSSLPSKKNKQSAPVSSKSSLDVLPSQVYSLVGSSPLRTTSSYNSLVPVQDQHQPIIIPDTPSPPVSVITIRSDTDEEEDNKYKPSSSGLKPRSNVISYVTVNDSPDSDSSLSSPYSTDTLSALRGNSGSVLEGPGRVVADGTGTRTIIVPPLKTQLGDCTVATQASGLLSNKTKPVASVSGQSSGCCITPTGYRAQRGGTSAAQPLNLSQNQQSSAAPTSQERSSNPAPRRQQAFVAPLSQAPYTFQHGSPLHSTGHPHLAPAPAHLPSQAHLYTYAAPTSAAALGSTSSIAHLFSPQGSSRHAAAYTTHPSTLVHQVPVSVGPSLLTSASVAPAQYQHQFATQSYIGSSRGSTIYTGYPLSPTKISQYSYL
Chain of UniProt Q00532 (whole entry, looked up): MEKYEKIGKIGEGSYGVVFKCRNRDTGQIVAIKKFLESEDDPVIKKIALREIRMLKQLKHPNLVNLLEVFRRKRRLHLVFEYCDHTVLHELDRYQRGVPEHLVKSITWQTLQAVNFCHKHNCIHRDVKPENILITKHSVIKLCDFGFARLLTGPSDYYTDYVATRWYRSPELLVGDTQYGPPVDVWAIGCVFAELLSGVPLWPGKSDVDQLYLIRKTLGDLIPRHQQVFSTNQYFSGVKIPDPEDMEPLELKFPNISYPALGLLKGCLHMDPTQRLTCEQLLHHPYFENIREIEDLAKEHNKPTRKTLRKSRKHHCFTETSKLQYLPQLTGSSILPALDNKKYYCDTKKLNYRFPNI
Chain of UniProt P22455 (whole entry, looked up): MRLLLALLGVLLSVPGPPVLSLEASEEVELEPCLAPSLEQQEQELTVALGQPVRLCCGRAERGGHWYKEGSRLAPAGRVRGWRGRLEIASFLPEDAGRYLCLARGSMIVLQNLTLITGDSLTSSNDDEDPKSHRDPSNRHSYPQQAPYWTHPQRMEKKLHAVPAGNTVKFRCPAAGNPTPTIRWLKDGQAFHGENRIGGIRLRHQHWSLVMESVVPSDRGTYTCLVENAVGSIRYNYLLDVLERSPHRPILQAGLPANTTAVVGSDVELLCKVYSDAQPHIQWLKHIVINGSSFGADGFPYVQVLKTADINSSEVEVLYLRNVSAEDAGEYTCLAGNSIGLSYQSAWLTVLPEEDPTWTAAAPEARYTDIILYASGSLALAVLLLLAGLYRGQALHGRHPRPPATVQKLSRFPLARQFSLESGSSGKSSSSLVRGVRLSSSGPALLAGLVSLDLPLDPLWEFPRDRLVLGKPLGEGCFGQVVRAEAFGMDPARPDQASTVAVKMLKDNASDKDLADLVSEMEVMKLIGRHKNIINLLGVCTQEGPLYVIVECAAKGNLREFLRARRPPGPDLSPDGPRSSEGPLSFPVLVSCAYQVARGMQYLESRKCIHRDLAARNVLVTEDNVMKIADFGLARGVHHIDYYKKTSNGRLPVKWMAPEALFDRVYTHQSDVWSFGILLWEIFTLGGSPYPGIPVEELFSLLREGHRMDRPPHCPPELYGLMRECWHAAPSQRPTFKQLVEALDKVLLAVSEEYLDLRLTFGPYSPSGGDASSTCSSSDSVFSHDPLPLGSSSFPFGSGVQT

Sample 1 — effect on: enzyme activity; action: inhibitor; tested at: 0.5 µM; baseline: control
Target: cAMP-dependent protein kinase catalytic subunit alpha (PRKACA, Homo sapiens, UniProt P17612)
With COc1cc2ncnc(Nc3cccc(Cl)c3)c2cc1OC the remaining activity was 98.6%.
Nc1cccc(-c2cc3c(Oc4cccc(O)c4)ncnc3[nH]2)c1 gave a remaining activity of 92.3%.
With CCN(CC)CCNC(=O)c1c(C)[nH]c(/C=C2\C(=O)Nc3ccc(F)cc32)c1C the remaining activity was 89.1%.
COc1cc2c(cc1OC)-c1[nH]nc(Nc3cccc(F)c3)c1C2 has a remaining activity of 92.8%.
For N#Cc1c(NC(=O)c2cccc3ccccc23)sc2c1CCCC2, the remaining activity was 102%.
CCN(CC)C(=O)c1ccc(Nc2nc(OCC3CCCCC3)c3[nH]cnc3n2)cc1 gave a remaining activity of 93.7%.
For c1ccc(-c2[nH]ncc2-c2ccnc3ccccc23)nc1, the remaining activity was 107%.
With O=C1C(Cl)=C(N2C(=O)CCC2=O)C(=O)c2ccccc21 the remaining activity was 88.8%.
c1ccc(-c2cnc(Nc3ccc(OCCN4CCCC4)cc3)s2)cc1 has a remaining activity of 102%.
Cc1nc2cc3nc(-c4cccs4)cnc3cc2n1C has a remaining activity of 100%.
With Cn1nc2c3c(cccc31)C(=O)c1ccccc1-2 the remaining activity was 104%.
O=C(Nc1cccc(Nc2nccc(Nc3cccc(C(F)(F)F)c3)n2)c1)C1CC1 has a remaining activity of 91.7%.
With CCOc1nc(NC(=O)Cc2cc(OC)ccc2OC)cc(N)c1C#N the remaining activity was 104%.
The remaining activity of Cc1cn(-c2cc(NC(=O)c3ccc(C)c(Nc4nccc(-c5cccnc5)n4)c3)cc(C(F)(F)F)c2)cn1 is reported as 98.6%.
O=C1c2ccccc2-c2n[nH]c3cccc1c23 gave a remaining activity of 98.6%.
COc1cc2ncnc(Nc3ccc(O)c(Br)c3)c2cc1OC has a remaining activity of 97.7%.
N#C/C(=C\c1ccc(O)c(O)c1)C(=O)NCc1ccccc1 gave a remaining activity of 104%.
For CCN(CC)CCNC(=O)c1c(C)[nH]c(/C=C2\C(=O)Nc3ccc(Cl)cc32)c1C, the remaining activity was 90%.
For Cc1cc2ncc(-c3ccccc3)nc2cc1C, the remaining activity was 108%.
The remaining activity of O=c1cc(-c2cccc3c2Sc2ccccc2S3)oc(N2CCOCC2)c1 is reported as 99.6%.
For Ic1cccc(CSc2nnc(-c3ccncc3)o2)c1, the remaining activity was 94.6%.
With CN(C)C[C@H]1CCn2c(c(C3=C(c4cn(C)c5ccccc45)C(=O)NC3=O)c3ccccc32)C1 the remaining activity was 87.2%.

Sample 2 — effect on: cell-free assay; technique: competition with immobilised ligand; tested at: 1 µM
SMILES: COc1ccc2c(O[C@@H]3C[C@H]4C(=O)N[C@]5(C(=O)O)CC5/C=C\CCCCC[C@H](NC(=O)OC5CCCC5)C(=O)N4C3)cc(-c3csc(NC(=O)C(C)C)n3)nc2c1C (some centres unmarked)
CIT (Homo sapiens, UniProt O14578) — remaining binding: 99%.
CLK4 (Homo sapiens, UniProt Q9HAZ1) — remaining binding: 100%.
For Tyrosine-protein kinase ABL1, non-phosphorylated (ABL1, Homo sapiens, UniProt P00519, H396P): remaining binding read 77%.
The remaining binding was 77% (HIPK1 (Homo sapiens, UniProt Q86Z02)).
The remaining binding was 75% (EGFR (Homo sapiens, UniProt P00533, del752-759)).
For AKT1 (Homo sapiens, UniProt P31749): remaining binding read 100%.
It gave 100% for remaining binding (FGFR4 (Homo sapiens, UniProt P22455)).
The remaining binding was 100% (YES1 (Homo sapiens, UniProt P07947)).
The remaining binding was 69% (PLK2 (Homo sapiens, UniProt Q9NYY3)).
It gave 100% for remaining binding (RIPK1 (Homo sapiens, UniProt Q13546)).
For MYLK (Homo sapiens, UniProt Q15746): remaining binding read 78%.
For AAK1 (Homo sapiens, UniProt Q2M2I8): remaining binding read 100%.
It gave 74% for remaining binding (Tyrosine-protein kinase ABL1, non-phosphorylated (ABL1, Homo sapiens, UniProt P00519)).
TNK2 (Homo sapiens, UniProt Q07912) — remaining binding: 100%.
CDKL1 (Homo sapiens, UniProt Q00532) — remaining binding: 99%.

Sample 3 — cell line: HaCaT; tested at: 100 µM; time: 36 h
The viability of Cc1cc(C(C#N)c2ccc(Cl)cc2)c(Cl)cc1NC(=O)c1cc(I)cc(I)c1O (centres unmarked) is reported as 5.46%.
CN(C)CCC(c1ccc(Br)cc1)c1ccccn1 (centres unmarked) gave a viability of 53.1%.
The viability of OCCOCCN1CCN(C(c2ccccc2)c2ccc(Cl)cc2)CC1 (centres unmarked) is reported as 19.7%.
With N=C(N)c1ccc2cc(OC(=O)c3ccc(N=C(N)N)cc3)ccc2c1 the viability was 97.3%.
CC1(C)O[C@@H]2[C@@H](CO[C@@]3(COS(N)(=O)=O)OC(C)(C)O[C@@H]23)O1 has a viability of 90.2%.
With Cc1cccc(N(C)C(=S)Oc2ccc3ccccc3c2)c1 the viability was 83.4%.
With CCCCCNC(=N)N/N=C/c1c[nH]c2ccc(OC)cc12 the viability was 6.56%.
CCOc1ccccc1OCCN[C@H](C)Cc1ccc(OC)c(S(N)(=O)=O)c1 gave a viability of 76.9%.
CCCc1ncc(C[n+]2ccccc2C)c(N)n1 gave a viability of 79%.
CC1(C)CCC(C)(C)c2cc(NC(=O)c3ccc(C(=O)O)cc3)ccc21 has a viability of 66.9%.
With CC(C)N(CCCCOCC(=O)NS(C)(=O)=O)c1cnc(-c2ccccc2)c(-c2ccccc2)n1 the viability was 21.6%.
For Nc1nc(=O)n([C@@H]2CS[C@H](CO)O2)cc1F, the viability was 97.3%.
With NS(=O)(=O)c1cc2c(cc1Cl)NC(C(Cl)Cl)NS2(=O)=O (centres unmarked) the viability was 98.4%.
O=C1OC2(c3ccc(O)cc3Oc3cc(O)ccc32)c2ccccc21 gave a viability of 176%.
COC(=O)C1=CO[C@@H](O[C@@H]2O[C@H](CO)[C@@H](O)[C@H](O)[C@H]2O)[C@@H]2C(CO)=CC[C@H]12 has a viability of 84.9%.
O[C@@H](c1cc(C(F)(F)F)nc2c(C(F)(F)F)cccc12)[C@H]1CCCCN1 has a viability of 111%.

Sample 4 — host: mouse; sample: microsomes or S9; tested at: 2 µM; time: 0.5 h
The remaining compound of Cn1ccc2c(-c3ccc(-c4nnco4)cc3)ccnc21 is reported as 0.249%.
The remaining compound of CCCN(CC(=O)OC(C)(C)C)C(=O)Cc1c(C)[nH]c2ccnn2c1=O is reported as 91.8%.
For CCOc1cccc(C2c3cccn3-c3sc4c(c3CN2C(=O)NCc2ccc(C)cc2)CCCC4)c1 (centres unmarked), the remaining compound was 5.21%.
With N#Cc1nccnc1NCCc1nc2c(s1)CCCC2 the remaining compound was 0.159%.
For O=C(O)c1cccc(NC(=O)c2cc(S(=O)(=O)Nc3ccc(Br)cc3)ccc2Cl)c1, the remaining compound was 44.1%.
With CC(C)CN1CCN(S(=O)(=O)c2ccc(-c3nnc(C(C)C)o3)o2)CC1 the remaining compound was 0.509%.
With CN1CCN(c2ccc3[nH]c(-c4ccc5[nH]c(-c6ccc(O)cc6)nc5c4)nc3c2)CC1 the remaining compound was 44.3%.
For COc1ccccc1CNC(=O)c1c(OCC(C)C)cc(=O)n2c1CCCCC2, the remaining compound was 1.95%.
The remaining compound of Cc1nc(O)[nH]c(=O)c1S(=O)(=O)Nc1ccccc1C(=O)NCCc1ccccc1 is reported as 45.7%.
O=C(Nc1cc(Br)cc2c1N(c1ncccn1)CC2)c1ccccc1 gave a remaining compound of 0.625%.
The remaining compound of CC1c2cccn2-c2sc3c(c2CN1C(=O)NC1CCCC1)CCCC3 (centres unmarked) is reported as under 1%.
O=C(c1ccc(Nc2nc3ccccc3n3nnnc23)cc1)N1CCc2ccccc2C1 gave a remaining compound of 6.44%.

Repeated from above (sample 3):
CC1(C)CCC(C)(C)c2cc(NC(=O)c3ccc(C(=O)O)cc3)ccc21 has a viability of 66.9%.
With CC(C)N(CCCCOCC(=O)NS(C)(=O)=O)c1cnc(-c2ccccc2)c(-c2ccccc2)n1 the viability was 21.6%.
For Nc1nc(=O)n([C@@H]2CS[C@H](CO)O2)cc1F, the viability was 97.3%.
With NS(=O)(=O)c1cc2c(cc1Cl)NC(C(Cl)Cl)NS2(=O)=O (centres unmarked) the viability was 98.4%.
O=C1OC2(c3ccc(O)cc3Oc3cc(O)ccc32)c2ccccc21 gave a viability of 176%.
